# Experimental data of several laboratories.
# A part holds a random share of what one study measured. Substitutions count along the parent as printed.

# Set 1
# Target: Phosphate system positive regulatory protein PHO4, full length, GST-tagged (PHO4, Saccharomyces cerevisiae, UniProt P07270, residues 1-312)
# Technique: competition protein-binding microarray
# Molecule type: double-stranded DNA, one strand shown
# Matrix: in vitro
# Tested at: 2 µM
# Notes: whole 60-bp probe, lowest competitor level
# With: Cbf1 competitor, 0.05 µM
# Reading: higher = stronger binding
# Residues (chain): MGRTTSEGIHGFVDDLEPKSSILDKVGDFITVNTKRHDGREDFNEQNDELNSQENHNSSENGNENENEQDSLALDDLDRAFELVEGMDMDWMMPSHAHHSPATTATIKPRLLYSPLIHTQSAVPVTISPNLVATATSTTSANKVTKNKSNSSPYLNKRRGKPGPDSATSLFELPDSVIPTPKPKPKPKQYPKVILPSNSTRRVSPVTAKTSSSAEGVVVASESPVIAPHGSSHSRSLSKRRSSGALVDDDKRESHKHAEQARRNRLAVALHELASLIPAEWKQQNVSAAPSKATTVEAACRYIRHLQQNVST
Oligonucleotide,fluorescence intensity [a.u.]
AAGCTCGGCTAAGGCAACGTGCATCCCTCTAGAGACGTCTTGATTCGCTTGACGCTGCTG,11400
TAACTGGTTCAGAAACACGTTCCAACAATGGCTTGAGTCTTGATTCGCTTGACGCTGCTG,10900
ACCACCACAACGACAAGCGTGCCGATGTCCCCGTTAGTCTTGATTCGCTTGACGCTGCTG,8630
CCACAATCTGATGCTTTCGTGATGGATCCTCCAATTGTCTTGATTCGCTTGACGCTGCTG,3710
CTTTCCTTGGTCGCCGGCGTGACGGATTCGCTGGCGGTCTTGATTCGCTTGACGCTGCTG,5050
AAAGCGGTAATTTGTATAGTGGGTGCAGATATCTATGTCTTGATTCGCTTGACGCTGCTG,4080
GATAGTGCTGTCTGGGGCGTGCGATATGCAAAGCTTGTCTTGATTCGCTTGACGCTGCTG,10200

# Set 2
# Target: RING finger protein unkempt homolog, zinc fingers 1-6, GST-SBP tag (UNK, Homo sapiens, UniProt Q9C0B0, residues 30-357)
# Technique: RNA Bind-n-Seq
# Molecule type: RNA
# Matrix: in vitro
# Tested at: not given
# Notes: RNA with constant flanks, human and mouse sites, ends assumed
# Reference: input RNA pool
# Reading: higher = stronger binding
# Residues (chain): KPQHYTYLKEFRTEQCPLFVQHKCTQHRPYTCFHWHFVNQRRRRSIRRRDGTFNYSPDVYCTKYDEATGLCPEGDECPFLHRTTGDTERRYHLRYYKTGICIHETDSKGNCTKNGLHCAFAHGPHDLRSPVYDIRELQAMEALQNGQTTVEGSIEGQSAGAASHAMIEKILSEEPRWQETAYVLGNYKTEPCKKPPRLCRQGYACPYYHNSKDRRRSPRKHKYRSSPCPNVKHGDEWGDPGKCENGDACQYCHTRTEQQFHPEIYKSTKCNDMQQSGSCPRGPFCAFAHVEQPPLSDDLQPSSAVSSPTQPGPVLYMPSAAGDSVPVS
Oligonucleotide,bound/input enrichment [ratio]
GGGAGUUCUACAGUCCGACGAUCAAAAACCUUCUGCAAUGUGAAUCCUCACUGAAUCAUGCUAAAGAAAUACUCAGAAAUGCAGAGGAAGAGGAAAGCCGGGUACGAGCACAUGCCUGGAAUAUGAAGUUCAAUUUAGCACAUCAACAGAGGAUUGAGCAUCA,0.507
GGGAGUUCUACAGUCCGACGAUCGAGGAUGCCCUGUUUAUGUUUGAGUAUUUUAAGCCCAAGACCCUCCCUGAAUUUGAUAGCUACAAGACAAGCACUGUUUCUGCUGACUUGGCAAACCUGUUGAAGAGAAUUGCUACCAUUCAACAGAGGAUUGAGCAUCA,0.548
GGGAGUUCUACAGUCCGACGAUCGAGGAAUUUGGAGUAGUUUCAAAUACAAGAUUGAUUGCUGCUGCUACUUCUGUAUUAAAAACUAGAUUUUCAUAUGCCUUUCCAAAGGAAUUUCCUUAUAGGAUGAAUCAUAUAUUAGAACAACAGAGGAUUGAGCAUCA,30.6
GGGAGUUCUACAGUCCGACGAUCGCAGGUAUUCAGUACACAAUGCAGGCAUUAGUUUCUCAGUUAAAAAACAAGGAGAGACAGUAGCUGAUGUUAGGACACUACCCAAUGCCUCAACCGUGGACAAUAUUCGCUCCAUCUUUGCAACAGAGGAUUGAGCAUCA,0.0866
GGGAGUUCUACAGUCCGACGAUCAGAAAACCAAAAUGAUACUUACUGAACUGUGUGUAAUUGUUCCUUUUAUUUUUUUGGUACCUAUUUGACUUACCAUGGAGUUAACAUCAUGAAUUUAUUGCACAUUGUUCAAAAGGAACCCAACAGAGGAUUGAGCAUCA,0.203
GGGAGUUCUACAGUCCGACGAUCUAUAUCCUCUCCCUCUACCUGUAACAAUUUUGUUUUCUACUGUUAAUUACAUUGUGUAUUUAUAGUUCUAUGCUUACUGUUGUGCAUAUACUGGCAAUAAAACUGUACAUAACAUUACUUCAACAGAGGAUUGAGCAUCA,0.209
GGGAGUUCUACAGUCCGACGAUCCUGCCUCCGUGCAGAGCGGCCGGGAGGGCUUUGCAGCGGCCGCCGACGCGGCGGGAGGAGGGGGCUGAGGCGGCUUCGGAGUUGGCCGGAGAAGGUGGGCAUUUCUCGCUUUUCCUCCCCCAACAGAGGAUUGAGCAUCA,0.0918

# Set 3
# Target: CCNB2, cyclin fold, Cln2 fusion (human)
# Technique: yeast growth competition, sequencing
# Matrix: yeast
# Notes: weak parent motif
# Reference: not given
# Reading: higher = stronger binding
# Starting sequence: PKN2 docking peptide (human); VSAVRKLDFSDTM; partner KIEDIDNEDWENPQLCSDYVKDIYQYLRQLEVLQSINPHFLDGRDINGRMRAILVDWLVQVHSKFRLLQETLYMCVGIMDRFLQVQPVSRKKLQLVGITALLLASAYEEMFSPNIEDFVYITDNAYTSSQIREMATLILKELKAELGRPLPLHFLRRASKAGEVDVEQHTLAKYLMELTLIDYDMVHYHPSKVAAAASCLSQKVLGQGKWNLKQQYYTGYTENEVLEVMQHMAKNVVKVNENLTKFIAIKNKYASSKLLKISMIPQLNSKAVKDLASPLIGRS
Substitution,normalised enrichment score
L7G,-0.186
D8S,0.656
S10F,-0.142
S2R,0.428
L7Y,0.196

# Mixed results
Molecule,target,test,system,conditions,scale,quantity,result
"PhoQ, residues 284 288 289 292 302 303 SIHMAM","PhoP, residues 12 14 15 18 19 SPWRL (Escherichia coli, UniProt P23836)","Sort-seq, measured: YFP reporter",E. coli,"PhoQ-PhoP variant library, with: 10 µM Mg2+","reference: high Mg2+ state, higher = stronger signaling",fold induction,2.41

# Excerpt of the above (set 3):
Substitution,normalised enrichment score
L7G,-0.186
D8S,0.656
S10F,-0.142
